Experimental data pooled from the literature.
Compare with care: the assays were run in different laboratories. Values joined by “and” are separate records of one study, mostly repeats; a detail may differ. ± marks the error that the study gave.
Astl: Astacin-like metalloendopeptidase (Astl, Mus musculus, UniProt Q6HA09)
rhlR: HTH-type quorum-sensing regulator RhlR (rhlR, Pseudomonas aeruginosa, UniProt P54292)
Chain of UniProt P54292 (whole entry, looked up): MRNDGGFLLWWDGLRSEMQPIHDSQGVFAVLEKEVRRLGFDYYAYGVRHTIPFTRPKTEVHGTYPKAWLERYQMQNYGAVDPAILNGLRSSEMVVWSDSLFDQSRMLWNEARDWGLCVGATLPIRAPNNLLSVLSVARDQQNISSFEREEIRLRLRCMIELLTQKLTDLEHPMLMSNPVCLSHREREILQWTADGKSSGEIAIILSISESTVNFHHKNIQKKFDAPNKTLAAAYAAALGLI
NUAK2: NUAK family SNF1-like kinase 2 (NUAK2, Homo sapiens, UniProt Q9H093)
Chain of UniProt Q9H093 (whole entry, looked up): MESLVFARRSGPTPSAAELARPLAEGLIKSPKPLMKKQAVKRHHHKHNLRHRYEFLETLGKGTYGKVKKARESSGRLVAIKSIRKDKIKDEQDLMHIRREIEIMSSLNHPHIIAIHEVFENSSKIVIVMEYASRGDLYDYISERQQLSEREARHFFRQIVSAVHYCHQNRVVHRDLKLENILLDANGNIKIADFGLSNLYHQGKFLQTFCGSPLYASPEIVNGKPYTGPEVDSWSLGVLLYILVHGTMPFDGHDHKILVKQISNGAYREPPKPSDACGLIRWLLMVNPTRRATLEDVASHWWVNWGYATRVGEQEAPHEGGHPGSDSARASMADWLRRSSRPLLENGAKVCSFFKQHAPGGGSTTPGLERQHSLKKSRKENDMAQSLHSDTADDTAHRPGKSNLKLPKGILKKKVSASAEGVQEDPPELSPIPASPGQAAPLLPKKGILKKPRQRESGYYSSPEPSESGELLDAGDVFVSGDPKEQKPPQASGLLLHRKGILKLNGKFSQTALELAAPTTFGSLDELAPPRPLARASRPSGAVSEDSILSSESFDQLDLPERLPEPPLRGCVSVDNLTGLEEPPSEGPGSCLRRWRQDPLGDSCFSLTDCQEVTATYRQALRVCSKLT
FGFR4: Fibroblast growth factor receptor 4 (FGFR4, Homo sapiens, UniProt P22455)
Chain of UniProt P22455 (whole entry, looked up): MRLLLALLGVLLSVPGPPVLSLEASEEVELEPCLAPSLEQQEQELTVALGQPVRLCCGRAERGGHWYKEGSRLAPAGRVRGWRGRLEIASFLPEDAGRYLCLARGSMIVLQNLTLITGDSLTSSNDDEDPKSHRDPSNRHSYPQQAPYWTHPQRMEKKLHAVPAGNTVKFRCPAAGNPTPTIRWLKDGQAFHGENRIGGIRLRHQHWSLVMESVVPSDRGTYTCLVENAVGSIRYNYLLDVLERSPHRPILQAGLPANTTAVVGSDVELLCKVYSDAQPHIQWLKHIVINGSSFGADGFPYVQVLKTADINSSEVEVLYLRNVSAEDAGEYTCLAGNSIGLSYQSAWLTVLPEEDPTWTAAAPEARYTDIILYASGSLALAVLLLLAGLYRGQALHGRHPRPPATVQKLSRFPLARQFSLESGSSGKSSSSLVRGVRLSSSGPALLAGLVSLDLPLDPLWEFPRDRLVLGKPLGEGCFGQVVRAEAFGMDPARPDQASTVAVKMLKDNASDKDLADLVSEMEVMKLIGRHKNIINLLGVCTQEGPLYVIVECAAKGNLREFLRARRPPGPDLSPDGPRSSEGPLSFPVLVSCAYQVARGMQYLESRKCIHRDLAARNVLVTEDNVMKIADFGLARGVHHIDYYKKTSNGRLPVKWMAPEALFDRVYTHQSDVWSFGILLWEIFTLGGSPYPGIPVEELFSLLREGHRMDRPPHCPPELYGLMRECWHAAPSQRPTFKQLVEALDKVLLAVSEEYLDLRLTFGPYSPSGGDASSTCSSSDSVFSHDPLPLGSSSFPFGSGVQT
HDAC6 ZnF-UBD domain: Protein deacetylase HDAC6, ZnF-UBD domain (HDAC6, Homo sapiens, UniProt Q9UBN7)
Chain of UniProt P35580 (whole entry, looked up): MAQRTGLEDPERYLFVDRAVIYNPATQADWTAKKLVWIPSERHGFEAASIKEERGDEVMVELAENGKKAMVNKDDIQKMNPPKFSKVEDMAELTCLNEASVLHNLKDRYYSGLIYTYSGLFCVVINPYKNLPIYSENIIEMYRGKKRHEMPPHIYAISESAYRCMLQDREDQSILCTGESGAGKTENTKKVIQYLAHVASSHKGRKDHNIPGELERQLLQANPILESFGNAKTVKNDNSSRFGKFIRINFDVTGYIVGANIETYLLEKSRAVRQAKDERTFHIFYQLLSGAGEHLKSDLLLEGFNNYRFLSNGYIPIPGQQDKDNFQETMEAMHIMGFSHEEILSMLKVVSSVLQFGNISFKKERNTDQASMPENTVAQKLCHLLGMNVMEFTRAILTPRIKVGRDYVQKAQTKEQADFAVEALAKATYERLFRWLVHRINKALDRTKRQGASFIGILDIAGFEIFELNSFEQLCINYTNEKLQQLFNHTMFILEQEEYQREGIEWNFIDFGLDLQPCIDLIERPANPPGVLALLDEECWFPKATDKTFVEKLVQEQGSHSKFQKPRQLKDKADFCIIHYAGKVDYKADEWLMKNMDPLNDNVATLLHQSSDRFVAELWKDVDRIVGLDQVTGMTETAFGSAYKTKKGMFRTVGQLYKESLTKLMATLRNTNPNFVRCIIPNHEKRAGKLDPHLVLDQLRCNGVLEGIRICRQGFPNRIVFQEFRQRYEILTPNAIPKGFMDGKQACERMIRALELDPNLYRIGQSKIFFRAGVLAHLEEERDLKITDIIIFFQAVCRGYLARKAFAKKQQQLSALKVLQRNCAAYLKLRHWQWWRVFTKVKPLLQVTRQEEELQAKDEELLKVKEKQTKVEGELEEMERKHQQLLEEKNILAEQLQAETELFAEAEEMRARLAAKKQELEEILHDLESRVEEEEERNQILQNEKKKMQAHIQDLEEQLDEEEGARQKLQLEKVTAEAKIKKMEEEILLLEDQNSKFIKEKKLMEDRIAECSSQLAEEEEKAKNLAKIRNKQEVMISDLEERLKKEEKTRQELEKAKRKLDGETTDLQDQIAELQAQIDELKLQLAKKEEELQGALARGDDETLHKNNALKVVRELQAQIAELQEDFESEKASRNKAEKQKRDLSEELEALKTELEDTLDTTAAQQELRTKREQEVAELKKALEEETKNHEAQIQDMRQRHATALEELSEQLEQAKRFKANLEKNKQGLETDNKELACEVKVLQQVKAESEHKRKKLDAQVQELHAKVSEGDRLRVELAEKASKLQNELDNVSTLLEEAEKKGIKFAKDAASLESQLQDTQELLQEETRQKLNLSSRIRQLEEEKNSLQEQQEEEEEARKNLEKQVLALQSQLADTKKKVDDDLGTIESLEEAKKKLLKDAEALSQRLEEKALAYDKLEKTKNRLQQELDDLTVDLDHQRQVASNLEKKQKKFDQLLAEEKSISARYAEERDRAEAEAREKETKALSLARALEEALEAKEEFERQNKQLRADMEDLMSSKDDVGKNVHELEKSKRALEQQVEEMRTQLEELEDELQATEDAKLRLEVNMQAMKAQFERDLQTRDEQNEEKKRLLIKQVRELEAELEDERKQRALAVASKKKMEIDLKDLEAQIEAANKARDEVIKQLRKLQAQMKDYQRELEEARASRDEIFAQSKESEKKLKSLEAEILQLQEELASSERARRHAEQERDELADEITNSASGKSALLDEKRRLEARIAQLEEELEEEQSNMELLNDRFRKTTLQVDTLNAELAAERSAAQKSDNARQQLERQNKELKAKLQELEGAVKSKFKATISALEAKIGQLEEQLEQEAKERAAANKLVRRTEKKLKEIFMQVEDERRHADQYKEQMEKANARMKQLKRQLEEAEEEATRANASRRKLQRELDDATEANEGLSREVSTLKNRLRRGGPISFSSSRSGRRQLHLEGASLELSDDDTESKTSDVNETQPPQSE
Chain of UniProt Q9UBN7 (whole entry, looked up): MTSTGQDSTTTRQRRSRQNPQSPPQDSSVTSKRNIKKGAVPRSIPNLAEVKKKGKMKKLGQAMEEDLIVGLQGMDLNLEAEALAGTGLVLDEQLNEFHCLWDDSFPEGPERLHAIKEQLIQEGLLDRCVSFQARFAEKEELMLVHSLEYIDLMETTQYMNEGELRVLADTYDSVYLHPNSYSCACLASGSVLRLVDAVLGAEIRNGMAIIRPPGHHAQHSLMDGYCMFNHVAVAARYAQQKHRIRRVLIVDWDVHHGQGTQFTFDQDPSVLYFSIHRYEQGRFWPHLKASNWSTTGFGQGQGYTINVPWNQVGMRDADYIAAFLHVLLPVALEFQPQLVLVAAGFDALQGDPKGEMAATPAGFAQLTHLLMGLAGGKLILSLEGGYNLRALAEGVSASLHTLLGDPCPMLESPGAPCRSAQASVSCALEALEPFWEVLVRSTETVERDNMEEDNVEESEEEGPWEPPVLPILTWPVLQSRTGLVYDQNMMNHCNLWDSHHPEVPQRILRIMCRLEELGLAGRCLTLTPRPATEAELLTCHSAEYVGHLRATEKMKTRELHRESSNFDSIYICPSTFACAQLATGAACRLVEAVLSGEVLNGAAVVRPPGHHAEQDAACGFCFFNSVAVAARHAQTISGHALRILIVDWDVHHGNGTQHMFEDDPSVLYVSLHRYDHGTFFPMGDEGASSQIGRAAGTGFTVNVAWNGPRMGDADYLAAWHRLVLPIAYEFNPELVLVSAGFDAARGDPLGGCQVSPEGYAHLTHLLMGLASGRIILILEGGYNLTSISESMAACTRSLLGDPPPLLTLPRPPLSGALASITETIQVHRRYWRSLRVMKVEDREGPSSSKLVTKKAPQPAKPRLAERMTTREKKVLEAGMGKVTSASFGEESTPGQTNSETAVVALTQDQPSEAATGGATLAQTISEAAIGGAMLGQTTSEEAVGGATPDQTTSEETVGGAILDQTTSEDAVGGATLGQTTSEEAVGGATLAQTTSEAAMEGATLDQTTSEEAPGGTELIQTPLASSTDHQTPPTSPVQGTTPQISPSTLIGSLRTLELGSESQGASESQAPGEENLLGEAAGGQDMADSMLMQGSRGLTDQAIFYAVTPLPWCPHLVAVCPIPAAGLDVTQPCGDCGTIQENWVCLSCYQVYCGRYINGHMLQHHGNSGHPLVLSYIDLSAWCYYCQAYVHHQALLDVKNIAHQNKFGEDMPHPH

`O=C(CCN(Cc1ccc(Cl)cc1F)Cc1ccc(Cl)c(O)c1F)NO` gave a remaining activity of 57 ± 5% (Astl; enzyme activity, inhibitor, fluorogenic; 0.25 µM).
With `CN(C)CC#Cc1ccc2[nH]c3c(c2c1)-c1nc(N)ncc1CCC3` the remaining activity was 98% (TTBK2 (Homo sapiens, UniProt Q6IQ55); kinase activity, inhibitor, radiometric; 1 µM, added: ATP at Km).
`CC#CC(=O)N1CCC[C@H]1c1nc(-c2ccc(C(=O)Nc3ccccn3)cc2)c2c(N)nccn12` has a remaining activity of 96.1 ± 1.5% (JAK3 (Homo sapiens, UniProt P52333); kinase activity, inhibitor, HotSpot radiometric; 100 nM, added: ATP 10 µM).
With `CC(C)[C@H](NC(=O)[C@@H](NC(=O)CCCc1cn(CC(O)CN2CCN(CC(=O)O)CCN(CC(=O)O)CCN(CC(=O)O)CC2)nn1)[C@@H](C)O)C(=O)N[C@@H](CCCNC(=N)N)C(=O)N[C@H](C(=O)N[C@@H](CO)C(=O)N[C@@H](C)C(=O)N[C@@H](CC(=O)O)C(=O)O)[C@@H](C)O` (stereo partly shown) the tmax was 8.4 ± 7.8 min (healthy male humans, plasma; intravenous bolus, 0.08 mmol/kg).
With `COc1cc(C#C[C@H](O)CC(C)C)ccc1O` the remaining activity was 72% (rhlR; reporter gene, inhibitor, quorum sensing reporter strain; 10 µM, 1.5 h; relative to: DMSO).
For `CNc1ncc2c(/C=C/C(=O)N3CCC(OC)CC3)nn(Cc3cccc(C(F)(F)F)c3)c2n1`, the remaining activity was 105% (NUAK2; kinase activity, inhibitor; 1 µM; relative to: untreated control).
`COc1cc(N2CCN(C)CC2)ccc1Nc1nc(N)n(C(=O)NCc2ccccc2S(=O)(=O)C(C)C)n1` has a remaining activity of 0.55% (FGFR4; enzyme activity; 10 µM; relative to: control).
For `COc1ccc(Cl)cc1-c1cc(=O)[nH]c(=S)n1CC(N)=O`, the remaining activity was 97.7% (Myeloperoxidase (MPO, Homo sapiens, UniProt P05164); 0.3125 µM, 0.1 h).
With `O=C(C#Cc1ccc(F)c(F)c1)c1ccccc1` the remaining activity was 59% (rhlR; reporter gene, inhibitor, quorum sensing reporter strain; 10 µM, 1.5 h; relative to: DMSO).
The tissue uptake of `CC(C)C[C@H](NC(=O)C[C@H](O)[C@H](CC(C)C)NC(=O)[C@H](Cc1c[nH]cn1)NC(=O)CNC(=O)[C@@H](NC(=O)[C@H](C)NC(=O)[C@H](Cc1c[nH]c2ccccc12)NC(=O)[C@H](CCC(N)=O)NC(=O)[C@@H](Cc1ccccc1)NC(=O)COCCOCCNC(=O)CCC(C(=O)O)N1CCN(CC(=O)O)CCN(CC(=O)O)CCN(CC(=O)O)CC1)C(C)C)C(N)=O` (stereo partly shown) [lutetium-177 labelled] is reported as 5.3 ± 0.7 %ID/g (BALB/c nu/nu mice, female, kidneys; 50 pmol, 1 h, added: PA 300 µg).
For `COc1cc(N2CCN(C)CC2)ccc1Nc1nc(N)n(C(=S)NCc2c(Cl)cccc2Cl)n1`, the remaining activity was 0% (FGFR4; enzyme activity; 10 µM; relative to: control).
For `Nc1ncnc2c1ncn2[C@@H]1O[C@H](COP(=O)(O)CP(=O)(O)OP(=O)(O)O)[C@@H](O)[C@H]1O`, the specific binding was 9 CCPM (P2X purinoceptor 1 (P2RX1, Homo sapiens, UniProt P51575, R292A); saturation binding; HEK293; 1 nM).
`O=C(COP(=O)(O)O)[C@@H](O)[C@H](O)[C@H](O)COP(=O)(O)O` — result for “thermal stability ratio”: 0.468 and 0.973 and 0.5 (Myosin-10 (Homo sapiens, UniProt P35580); thermal proteome profiling, measured: MYH10; HepG2 cell lysate; concentration not given, 57 over 37 °C; relative to: compound over control).
`COc1cc(Nc2ncc3c(n2)-c2ccc(Cl)cc2C(c2c(F)cccc2OC)=NC3)ccc1C(=O)O` has a remaining activity of 94% (SRPK2; kinase activity; 1 µM).
`COc1cc(-c2[nH]nnc2C(=O)c2ccccc2)ccc1O` gave a remaining activity of 75% (rhlR; reporter gene, inhibitor; Pseudomonas aeruginosa QS reporter strain; 10 µM, 1.5 h; relative to: DMSO control).
Under “log2 fold change”, `Oc1ccccc1-c1n[nH]cc1-c1ccnc2ccccc12` is recorded as -0.01 (CDC15 (Candida albicans); kinase binding, MIB/MS competition; Candida albicans lysate; 10 µM; relative to: DMSO).
For `C=CC(=O)N1CCC[C@@H](n2nc(-c3ccc(Oc4ccccc4)cc3)c3c(N)ncnc32)C1`, the remaining activity was 860% (ATM (Homo sapiens, UniProt Q13315); 0.1 µM).
`COc1cc(-c2cncc3c2CN(C)Cc2cc(N4CCNCC4)ccc2-3)cc(OC)c1OC` has a remaining activity of 138% (PDK2 (Homo sapiens, UniProt Q15119); kinase activity; 1 µM, human enzyme, added: ATP 10 µM; relative to: DMSO control).
With `Cc1ccc(C(=O)C#Cc2ccc(F)c(F)c2)cc1` the remaining activity was 69% (rhlR; reporter gene, inhibitor, quorum sensing reporter strain; 10 µM, 1.5 h; relative to: DMSO).
With `O=C(O)c1ccc(Nc2ncc3c(n2)-c2ccc(Cl)cc2C(c2c(F)cccc2F)=NC3)cc1` the remaining activity was 112% (human TrkB(h); kinase activity; 1 µM).
`COc1cc(C#CC(=O)c2cccc(C)c2)ccc1O` gave a remaining activity of 76% (rhlR; reporter gene, inhibitor, quorum sensing reporter strain; 10 µM, 1.5 h; relative to: DMSO).
The remaining activity of `O=C(CCN(Cc1ccncc1)Cc1ccc2c(c1)OCO2)NO` is reported as 116 ± 5% (Astl; enzyme activity, inhibitor, fluorogenic; 0.25 µM).
The Kd of `O=C(O)CC1Oc2ccccc2NC1=O` (stereo not shown) is reported as > 1000 µM (HDAC6 ZnF-UBD domain).
The remaining activity of `OC(C#Cc1ccc(F)c(F)c1)c1ccccc1Cl` (stereo not shown) is reported as 58% (rhlR; reporter gene, inhibitor, quorum sensing reporter strain; 10 µM, 1.5 h; relative to: DMSO).
For `O=C(NC1CCC1)c1ccc2nc(-c3cccc(NS(=O)(=O)NCCN4CCCCC4)c3)cn2c1`, the remaining activity was 100% (NUAK2; enzyme activity; 10 µM).
The remaining activity of `Cc1cc(NC(=O)c2cccc(NC(=O)/C=C/CN(C)C)c2)ccc1Nc1nccc(-c2cccnc2)n1` is reported as 0.936 (MAPK8 (Homo sapiens, UniProt P45983); enzyme activity, inhibitor; 0.02032 µM, 6 h, unit not given, added: GSH 10 mM pre-incubation; relative to: vehicle).
`COc1ccc(F)cc1C(=O)NCc1ccc(-c2nn([C@@H](C)C(F)(F)F)c(N)c2C(N)=O)cc1` gave a remaining activity of 93.3 ± 0.1% (BRAF (Homo sapiens, UniProt P15056); kinase activity, inhibitor, HotSpot radiometric; 100 nM, added: ATP 10 µM).
`CC[C@@H]1[C@H](F)C(=O)N[C@@H]1COc1nccc2cc(C(N)=O)c(OC)cc12` gave an inhibition of -7.6% (STK4 (Homo sapiens, UniProt Q13043); ATP-site probe binding, ActivX profiling, measured: MST1; THP-1 cell lysate; 0.01 mM, Lys1 site).
`Cc1ccccc1C(=O)C#Cc1ccc(F)c(F)c1` gave a remaining activity of 74% (rhlR; reporter gene, inhibitor, quorum sensing reporter strain; 10 µM, 1.5 h; relative to: DMSO).
`COc1cc(F)ccc1-c1ncnc(Nc2cccc(C[S@](C)(=N)=O)c2)n1` has a remaining activity of 104% (MAP3K5 (Homo sapiens, UniProt Q99683); kinase activity; 10 µM, added: 10 µM ATP).
`Cc1sc2ncn(CC(=O)O)c(=O)c2c1C` gave a Kd of 188 µM (HDAC6 ZnF-UBD domain).
Under “log2 fold change”, `Cn1cc(-c2ccc(-c3cncc(Cl)c3N3CCC4(CCNC4=O)CC3)cc2)cn1` is recorded as 2.1 (COLO 205; gene expression, microarray, measured: PLK2 mRNA; concentration not given, 2 h; relative to: untreated cells).
`NCc1cc2c(cc1F)C(=O)N(C1CCC(=O)NC1=O)C2` (stereo not shown) gave a concentration of 3.4 µM (Amine oxidase [copper-containing] 3 (Mus musculus, UniProt O70423); substrate, LC-MS/MS; recombinant mouse enzyme; 10 µM, 20 h, pH 7.4, added: inhibitor 0.25 µM).
The remaining activity of `Cc1cccc(C(=O)C#Cc2ccc(F)c(F)c2)c1` is reported as 69% (rhlR; reporter gene, inhibitor, quorum sensing reporter strain; 10 µM, 1.5 h; relative to: DMSO).

Repeated from above:
`COc1cc(Nc2ncc3c(n2)-c2ccc(Cl)cc2C(c2c(F)cccc2OC)=NC3)ccc1C(=O)O` has a remaining activity of 94% (SRPK2; kinase activity; 1 µM).
With `CN(C)CC#Cc1ccc2[nH]c3c(c2c1)-c1nc(N)ncc1CCC3` the remaining activity was 98% (TTBK2 (Homo sapiens, UniProt Q6IQ55); kinase activity, inhibitor, radiometric; 1 µM, added: ATP at Km).
With `O=C(O)c1ccc(Nc2ncc3c(n2)-c2ccc(Cl)cc2C(c2c(F)cccc2F)=NC3)cc1` the remaining activity was 112% (human TrkB(h); kinase activity; 1 µM).
